Measurements pooled from the literature.
Numbers after ± are the reported error. In brackets after ≈: the same amount, converted by molar mass.
Organism: Staphylococcus aureus

CN[C@H](CC(C)C)C(=O)N[C@H]1C(=O)N[C@@H](CC(N)=O)C(=O)N[C@H]2C(=O)N[C@H]3C(=O)N[C@H](C(=O)N[C@H](C(=O)O)c4cc(O)cc(O)c4-c4cc3ccc4O)[C@H](O)c3ccc(c(Cl)c3)Oc3cc2cc(c3O[C@@H]2O[C@H](CO)[C@@H](O)[C@H](O)[C@H]2O[C@H]2C[C@](C)(N)[C@H](O)[C@H](C)O2)Oc2ccc(cc2Cl)[C@H]1O  MBEC (Calgary Biofilm Device; MRSA 1707; biofilm): > 2000 µM
S=c1n(CN2CCN(c3ccccn3)CC2)nc(C23CC4CC(CC(C4)C2)C3)n1-c1ccccc1  inhibition zone diameter (IFO 3060; 200 µg/disc, 24 h, 37 °C): 28 mm
Fc1ccc2nc3c4cccnc4c4ncccc4c3nc2c1.[Cl-].[Cl-].[Ru+2].c1ccncc1.c1ccncc1.c1ccncc1.c1ccncc1  MIC90 (LED irradiation 470 nm): 4 µM
O=C(CCc1ccc(O)c(O)c1)NCCCCCCCCCC[P+](c1ccccc1)(c1ccccc1)c1ccccc1  K+ release (XU212; 2 x MIC, 1 h): 2.12 ± 0.55 µg/mL
CC(C)C[C@H](NC(=O)[C@H](CC(N)=O)NC(=O)[C@H](CCCNC(=N)N)NC(=O)[C@@H](CC(C)C)NC(=O)[C@H](Cc1ccc(-c2ccccc2)cc1)NC(=O)[C@H](CC(=O)O)NC(=O)[C@H](CCCCN)NC(=O)[C@@H](CC(C)C)NC(=O)[C@H](CCCN)NC(=O)[C@H](CCC(N)=O)NC(=O)[C@@H](NC(=O)[C@@H](CC(C)C)NC(=O)[C@H](CCCNC(=N)N)NC(=O)[C@H](CCCCN)NC(=O)[C@H](Cc1ccc(-c2ccccc2)cc1)NC(=O)CN)C(C)C)C(=O)N[C@H](C(N)=O)C(C)C  biofilm disruption concentration (XTT; USA300; 24 h, 24 h preformed biofilm): 12.5 µM
O=C(O)CN1C(=O)/C(=C/c2ccc(-c3ccc(N(c4ccccc4)c4ccccc4)cc3)cc2)NC1=S  MBC/MIC ratio (broth microdilution; ATCC 6538): 2
COC(=O)[C@H](Cc1cnc(C23CC4CC(CC(C4)C2)C3)[nH]1)NC(=O)[C@H](Cc1c[nH]c2ccccc12)NC(=O)[C@H](Cc1cnc(C23CC4CC(CC(C4)C2)C3)[nH]1)NC(=O)OC(C)(C)C  IC50: 4.22 µg/mL
CCc1ccccc1NC(=O)CSc1nc2ccccc2c(=O)n1-c1ccc(S(N)(=O)=O)cc1  inhibition zone (microbial growth, well diffusion; MRSA; 500 µg/mL, 24 h): 14 mm
CC(C)CNCc1cc(N(C)C)c2c(c1O)C(=O)C1=C(O)[C@]3(O)C(=O)C(C(N)=O)=C(O)[C@@H](N(C)C)[C@@H]3C[C@@H]1C2  MIC (MRSA 5, Tet M, 50% human serum): 2 µg/mL (≈ 3.69 µM)
CCCCCCCCCCCCCC(=O)N[C@@H](CCCNC(=N)N)C(=O)N[C@@H](CCCNC(=N)N)C(=O)N[C@@H](CCCNC(=N)N)C(N)=O  biofilm disruption (XTT; USA200; 6.25 µM, 24 h biofilm): 80%
O=C(CCc1cc(O)c(O)c(O)c1)NCCCCCCCCCC[P+](c1ccccc1)(c1ccccc1)c1ccccc1  cells with damaged membrane (propidium iodide uptake; XU212; 2 x MIC, 1 h): 44.7%
CN(C)c1cc(CNCCC(C)(C)C)c(O)c2c1C[C@H]1C[C@H]3[C@H](N(C)C)C(O)=C(C(N)=O)C(=O)[C@@]3(O)C(O)=C1C2=O  MIC (microbial growth; MRSA): 1 µg/mL (≈ 1.75 µM)
O=C1c2ccccc2NC(c2ccc(O)c(O)c2)N1/N=C/c1ccc(O)c(O)c1 (stereo not drawn)  lowest effective concentration (respiratory activity, inhibitor, MTT; ATCC 29213; concentration not given; at least 70% inhibition): 0.5 × MIC
CN(C)c1cc(CNc2ccccc2)c(O)c2c1C[C@H]1C[C@H]3[C@H](N(C)C)C(O)=C(C(N)=O)C(=O)[C@@]3(O)C(O)=C1C2=O  MIC (microbial growth, broth dilution): 2 µg/mL (≈ 3.55 µM)
CC[C@H](C)[C@H](N)C(=O)N[C@@H](CC(C)C)C(=O)N1CCC[C@H]1C(=O)N[C@@H](Cc1c[nH]c2ccccc12)C(=O)N[C@@H](CCCCN)C(=O)N[C@@H](Cc1c[nH]c2ccccc12)C(=O)N1CCC[C@H]1C(=O)N[C@@H](Cc1c[nH]c2ccccc12)C(=O)N[C@@H](Cc1c[nH]c2ccccc12)C(=O)N1CCC[C@H]1C(=O)N[C@@H](Cc1c[nH]c2ccccc12)C(=O)N[C@@H](CCCNC(=N)N)C(=O)N[C@@H](CCCNC(=N)N)C(N)=O  time to complete kill (time-kill; Mueller-Hinton broth; 4 x MIC, 37 °C): 3 h
CCCCCCCCCC1CC2CCC3CC(CCCCCCCCC)NC(=N1)N23 (stereo not drawn)  IC50 (bacterial growth; ATCC 29213): 3.02 µM
CN1/C(=C/C=C/c2cc(-c3ccccc3)cc(-c3ccccc3)[o+]2)C(C)(C)c2ccccc21  IC50 (lipid synthesis; NCTC 8325; together with: reserpine 20 µg/mL): 0.62 µg/mL
Cc1cccc([N+](=O)[O-])c1NC(=O)CSc1nc2ccccc2c(=O)n1-c1ccc(S(N)(=O)=O)cc1  inhibition zone (microbial growth, well diffusion; MRSA; 500 µg/mL, 24 h): 25 mm
CC(=NNC(=N)N)c1nnn(-c2ccc(C#CC3(O)CCCCC3)cc2)c1C  biofilm disruption (USA300 MRSA; 4 × MIC): ~37%
CC[P+](CC)(CC)[Au-][S][C@@H]1O[C@H](COC(C)=O)[C@@H](OC(C)=O)[C@H](OC(C)=O)[C@H]1NC(=O)C(Cl)(Cl)Cl  fold enhancement (JE2 USA300; reference: auranofin): ≤ 4
N=C(N)NCCC[C@@H]1NC(=O)[C@H](CCCNC(=N)N)NC(=O)[C@H](CCCNC(=N)N)NC(=O)[C@H](Cc2ccc3ccccc3c2)NC(=O)[C@H](Cc2c[nH]c3ccccc23)NC(=O)[C@H](Cc2ccc3ccccc3c2)NC(=O)[C@H](CCCNC(=N)N)NC1=O  time to kill (bacterial killing; MRSA ATCC BAA-1556; 4 x MIC): 1 to 2 h
CCCCCCCCCCCCCCCC(=O)N[C@@H](CCN)C(=O)N[C@H](C(=O)N[C@@H](CCN)C(=O)N[C@H]1CCNC(=O)[C@H]([C@@H](C)O)NC(=O)[C@H](CCN)NC(=O)[C@H](CCN)NC(=O)[C@H](CC(C)C)NC(=O)[C@@H](CC(C)C)NC(=O)[C@H](CCN)NC1=O)[C@@H](C)O  time to kill (time-kill; MRSA; 2 to 8 × MIC): ≤ 1 h
CCCCCCCCCCCCCCCCC(=O)N[C@@H](CCCCN)C(=O)N[C@@H](CCCCN)C(=O)N[C@@H](CCCCN)C(=O)N[C@@H](CCCCN)C(=O)N[C@@H](CCCCN)C(N)=O  survival (MRSA JE2, Galleria mellonella larvae; 50 mg/kg, 4 d): ~80%
CNC(CC(C)C)C(=O)NC1C(=O)NC(CC(N)=O)C(=O)NC2C(=O)NC3C(=O)NC(C(=O)NC(C(=O)O)c4cc(O)cc(O)c4-c4cc3ccc4O)C(O)c3ccc(c(Cl)c3)Oc3cc2cc(c3OC2OC(CO)C(O)C(O)C2OC2CC(C)(NC(=O)CCCCCCCC[n+]3ccccc3)C(O)C(C)O2)Oc2ccc(cc2Cl)C1O (stereo not drawn)  MIC fold improvement (agar dilution; MRSA5; reference: vancomycin, higher = more active): 8 fold
CN(C)c1cc(CN2CCc3ccccc3C2)c(O)c2c1C[C@H]1C[C@H]3[C@H](N(C)C)C(O)=C(C(N)=O)C(=O)[C@@]3(O)C(O)=C1C2=O  MIC (microbial growth, broth dilution): 0.5 µg/mL (≈ 0.83 µM)
CC(=O)[O-].O.O.O.O.[Co+2].[O-]c1ccc(Br)cc1C=NCCN1CCOCC1  inhibition zone diameter (20 µL of 100 µM per disc): 15 mm
CC(C)C[C@H](NC(=O)[C@H](CC(N)=O)NC(=O)[C@H](CCCNC(=N)N)NC(=O)[C@@H](CC(C)C)NC(=O)[C@H](Cc1ccc(-c2ccccc2)cc1)NC(=O)[C@H](CC(=O)O)NC(=O)[C@H](CCCCN)NC(=O)[C@@H](CC(C)C)NC(=O)[C@H](CCCNC(=N)N)NC(=O)[C@H](CCC(N)=O)NC(=O)[C@@H](NC(=O)[C@@H](CC(C)C)NC(=O)[C@H](CCCNC(=N)N)NC(=O)[C@H](CCCCN)NC(=O)[C@H](Cc1ccc(-c2ccccc2)cc1)NC(=O)CN)C(C)C)C(=O)N[C@H](C(N)=O)C(C)C  viable biofilm cells (XTT; USA300 LAC, 48 h preformed biofilm; 1 × MIC, 24 h): ~50%
CC(C)C[C@H](NC(=O)[C@H](CCCCN)NC(=O)[C@H](CCCNC(=N)N)NC(=O)[C@@H](CC(C)C)NC(=O)[C@H](Cc1ccc(-c2ccccc2)cc1)NC(=O)[C@H](CC(=O)O)NC(=O)[C@H](CCCCN)NC(=O)[C@@H](CC(C)C)NC(=O)[C@H](CCCNC(=N)N)NC(=O)[C@H](CCC(N)=O)NC(=O)[C@@H](NC(=O)[C@@H](CC(C)C)NC(=O)[C@H](CCCNC(=N)N)NC(=O)[C@H](CCCCN)NC(=O)[C@H](Cc1ccc(-c2ccccc2)cc1)NC(=O)CN)C(C)C)C(=O)N[C@H](C(N)=O)C(C)C  minimum antibiofilm concentration (biofilm disruption, XTT; USA300; 24 h, 24 h preformed biofilm, TSB): 12.5 µM
CN[C@H](CC(C)C)C(=O)N[C@H]1C(=O)N[C@@H](CC(N)=O)C(=O)N[C@H]2C(=O)N[C@H]3C(=O)N[C@H](C(=O)N[C@H](C(=O)O)c4cc(O)cc(O)c4-c4cc3ccc4O)[C@H](O)c3ccc(c(Cl)c3)Oc3cc2cc(c3O[C@@H]2O[C@H](CO)[C@@H](O)[C@H](O)[C@H]2O[C@H]2C[C@](C)(NCc3ccc(C(=O)OCCCCCCN(Cc4ccccn4)Cc4ccccn4)cc3)[C@H](O)[C@H](C)O2)Oc2ccc(cc2Cl)[C@H]1O  viable count reduction (MRSA exponential phase; MIC, 12 h): 2.4 log CFU/mL
COc1cc(NC(=O)CSc2nc3ccccc3c(=O)n2-c2ccc(S(N)(=O)=O)cc2)cc(OC)c1OC  inhibition zone (microbial growth, well diffusion; ATCC29213; 500 µg/mL, 24 h): 16 mm
CCC1(C)CCN(Cc2cc(N(C)C)c3c(c2O)C(=O)C2=C(O)[C@]4(O)C(=O)C(C(N)=O)=C(O)[C@@H](N(C)C)[C@@H]4C[C@@H]2C3)CC1  MIC (MRSA 5, Tet M, 50% human serum): 32 µg/mL (≈ 53.6 µM)
O=[N+]([O-])c1ccc2c(c1)C=[N+]1N3C(=[O+][Cu-2]1([Cl])[O]2)c1ccccc1NC3c1cc([N+](=O)[O-])ccc1O (stereo not drawn)  biofilm eradication (mature biofilm; ATCC 29213; 1 × MIC): 87.3 ± 4%
CNC(CC(C)C)C(=O)NC1C(=O)NC(CC(N)=O)C(=O)NC2C(=O)NC3C(=O)NC(C(=O)NC(C(=O)O)c4cc(O)cc(O)c4-c4cc3ccc4O)C(O)c3ccc(c(Cl)c3)Oc3cc2cc(c3OC2OC(CO)C(O)C(O)C2OC2CC(C)(NC(=O)CCCC[N+](C)(C)C)C(O)C(C)O2)Oc2ccc(cc2Cl)C1O (stereo not drawn)  MIC fold improvement (agar dilution; MRSA1; reference: vancomycin, higher = more active): 8 fold
C=CS(=O)(=O)NCCCCCCCCCCOCc1cn(CCCCCCCCCCNS(=O)(=O)C=C)n[n+]1C  IC50 (microbial growth, absorbance; 24 h): 8.3 µM
S=c1n(CN2CCN(c3ccccc3)CC2)nc(C23CC4CC(CC(C4)C2)C3)n1-c1ccccc1  inhibition zone diameter (IFO 3060; 200 µg/disc, 24 h, 37 °C): 19 mm
COc1c2c(cc3oc(=O)cc(C)c13)C(=O)c1cc(C)cc(O)c1C2=O  zone of inhibition (MTCC 96; 100 µg/disc): < 8 mm

A few entries again:
CCCCCCCCCC1CC2CCC3CC(CCCCCCCCC)NC(=N1)N23 (stereo not drawn)  IC50 (bacterial growth; ATCC 29213): 3.02 µM
Cc1cccc([N+](=O)[O-])c1NC(=O)CSc1nc2ccccc2c(=O)n1-c1ccc(S(N)(=O)=O)cc1  inhibition zone (microbial growth, well diffusion; MRSA; 500 µg/mL, 24 h): 25 mm
